Published values of several laboratories.
Several values in a cell are separate wells, animals, samples, runs or records. ± gives the spread as reported.

Under “treatment-emergent adverse events”, `O=C(Nc1nc2cccc(-c3ccc(CN4CCS(=O)(=O)CC4)cc3)n2n1)C1CC1` is recorded as 0% (item: pharyngitis; human rheumatoid arthritis patients; oral, 30 mg once daily, 4 weeks, regardless of relatedness).
`CC(=O)N[C@H]1CNC(=O)c2cc(cn2C)NC(=O)c2cc(cn2C)NC(=O)c2nc(cn2C)NC(=O)c2nc(cn2C)NC(=O)C[C@@H](NC(C)=O)CNC(=O)c2cc(cn2C)NC(=O)c2cc(cn2C)NC(=O)c2cc(cn2C)NC(=O)c2cc(cn2C)NC(=O)C1` — result for “critical aggregation concentration”: 4 µM (dynamic light scattering; 0.1% DMSO in PBS; 25 °C).
For `CC(C(=O)NCC(=O)NCC(CNC(=O)CNC(=O)C(C)N1CCN(CC(=O)[O-])CCN(CC(=O)[O-])CCN(CC(=O)[O-])CC1)(CNC(=O)CNC(=O)C(C)N1CCN(CC(=O)[O-])CCN(CC(=O)[O-])CCN(CC(=O)[O-])CC1)CNC(=O)CNC(=O)C(C)N1CCN(CC(=O)[O-])CCN(CC(=O)[O-])CCN(CC(=O)[O-])CC1)N1CCN(CC(=O)[O-])CCN(CC(=O)[O-])CCN(CC(=O)[O-])CC1.[Gd+3].[Gd+3].[Gd+3].[Gd+3]` (centres unmarked), “cumulative urinary excretion” read 100% (ICP-MS; cynomolgus monkey; dose not given, 5 d, mass balance group; baseline: dose).
`CC(C)(C)c1ccc(O)c(CN(Cc2cc(C(C)(C)C)ccc2O)C2CCC(NC(N)=O)CC2)c1` (centres unmarked) gave a recovery of 94.9 ± 0.51% (mouse plasma; 2000 ng/mL, time not given, freeze-thaw, 3 cycles, -20 °C).
`C[C@@H]1COCCN1c1cc(C2([S@](C)(=N)=O)CC2)nc(-c2cc[nH]c3nccc2-3)n1` has a Pyelonephritis incidence of 0% (Japanese advanced solid tumour patients; oral, 240 mg twice daily, CTCAE grade ≥3).
Under “subjects with adverse event”, `CC(C)(C(=O)N1CCOc2c(C#N)cncc2C1)C(F)F` is recorded as 0% (item: abdominal pain; human; oral, 15 mg twice daily, 14 days, multiple ascending dose).
The neutropenia incidence of `CNCc1ccc(-c2[nH]c3cc(F)cc4c3c2CCNC4=O)cc1` is reported as 0% (human patients; oral, 600 mg twice daily, grade 4).
`CNC(=O)c1cc(Oc2ccc(NC(=O)Nc3ccc(Cl)c(C(F)(F)F)c3)c(F)c2)ccn1` has a dose-adjusted solubility of 9.7e-05 mL⁻¹ (FaSSIF; literature solubility over dose).
`COc1c(N2C[C@@H]3CCCN[C@@H]3C2)c(F)cc2c(=O)c(C(=O)O)cn(C3CC3)c12` — result for “QTcI change from baseline”: 1.3 ms (healthy volunteers; oral, 400 mg single dose, day 5, 12.00 h).
`C/C(=N\c1ccc(O)cc1)c1cc2ccccc2n1C` gave a remaining compound of 99.9 ± 3.4% (rat plasma; 50 ng/mL, 15 days, -80 °C; baseline: nominal concentration).
`O=C1CC[C@H](N2Cc3cc(N4CCN(CC5CCN(c6ccc([C@@H]7c8ccc(O)cc8CC[C@@H]7c7ccccc7)cc6)CC5)CC4)ccc3C2=O)C(=O)N1`: “participants with TEAEs” 25% (human; oral, 200 mg, with: rosuvastatin 10 mg).
For `FC(F)(F)c1ccc(CNc2ccc(Cc3c[nH]c4ncc(Cl)cc34)cn2)cn1`, “treatment-related adverse events” read 2% (item: maculo-papular rash; human, advanced solid tumours, non-TGCT cohort; oral, 1000 mg/day, any grade).
`CC(C)[C@@H](CN1CC[C@@](C)(c2cccc(O)c2)[C@@H](C)C1)NC(=O)[C@H]1Cc2ccc(O)cc2CN1` has an AUCtotal of 7970 ng·h/g (Sprague-Dawley rat, brain; intraperitoneal, 3 mg/kg).
`C[C@@H](Nc1cc(F)cc(F)c1)c1cc(C(=O)N(C)C)cc2c(=O)cc(N3CCOCC3)oc12`: “related serious adverse events” 4.8% (item: Colitis; advanced solid tumour patients; oral, dose not given, dose finding).
`CC(C)NCCCC[C@@H]1NC(=O)[C@H](Cc2ccc(O)cc2)NC(=O)[C@H](Cc2ccccc2)NC(=O)CC[C@H](C(=O)N[C@@H](CCCCNC(C)C)C(=O)N[C@@H](CCCCNC(=O)[C@H](CCC(=O)O)NC(=O)[C@H](CCC(=O)O)NC(=O)[C@H](CCC(=O)O)NC(=O)CN2CCN(CC(=O)O)CCN(CC(=O)O)CCN(CC(=O)O)CC2)C(N)=O)NC(=O)CNC(=O)[C@H](Cc2ccc3ccccc3c2)NC(=O)[C@@H](CCCNC(=N)N)NC1=O` [gallium-68 labelled] has a tissue uptake of 0.21 %ID/g (mouse with PC-3 xenograft, bone; intravenous, 1 h).
`Cc1ccc([C@@H]2O[C@H](CO)[C@@H](O)[C@H](O)[C@H]2O)cc1Cc1ccc(-c2ccc(F)cc2)s1`: “urinary phosphate excretion change” 47.3 mg (item: inorganic phosphorus; Japanese type 2 diabetes patients; 400 mg, day 15, 24 h urine collection; baseline: baseline).
`CCCOc1ccc([C@H]2CNC(=O)N2c2ccc3[nH]cnc3c2)cc1` has an AUC(0-12h) of 2190 ng·h/mL (human volunteers fed, plasma; oral tablet, 200 mg single dose, crossover, geometric mean).
The half-life of `C[C@@H]1CN(CC(=O)N2CC(C)(C)c3nc(CO)c(Cc4ccc(F)cc4)cc32)[C@@H](CN2CCOC[C@H]2C)CN1` is reported as 7.9 ± 1.9 h (cynomolgus monkey, male; oral, 5 mg/kg).
With `CC(=O)N[C@@H](CC(N)=O)C(=O)N[C@@H](CC(N)=O)C(=O)N[C@@H](CC(C)C)C(=O)N[C@H]1CSSC[C@@H](C(=O)N[C@H](C(N)=O)[C@@H](C)O)NC(=O)[C@H](CCCNC(=N)N)NC(=O)[C@H](Cc2c[nH]cn2)NC(=O)[C@H](C)NC(=O)CNC(=O)[C@H](Cc2c[nH]c3ccccc23)NC(=O)[C@H](CC(=O)O)NC(=O)[C@H](CCC(N)=O)NC(=O)[C@H](Cc2c[nH]c3ccccc23)NC(=O)[C@H](C(C)C)NC1=O` the retention factor was 0.396 ± 0.015 (isocratic RP-HPLC, C18; 32% acetonitrile, phosphate pH 7.4, 1% TFA; 25 °C).
`Cc1cc(-c2nccc3c2ccn3CC(=O)Nc2ccc(-c3cnccn3)cn2)ccn1` — result for “subjects with Epistaxis adverse event”: 0% (human; 5 mg once daily, multiple ascending dose).
`N#CCNC(=O)c1ccc(-c2ccnc(Nc3ccc(N4CCOCC4=O)cc3)n2)cc1` — result for “Cmax geometric mean ratio”: 106% (healthy volunteers, plasma; dose not given, with: rifampin single-dose; baseline: with rifampin over alone).
`O=C(Nc1ccc(OC(F)(F)Cl)cc1)c1cnc(N2CC[C@@H](O)C2)c(-c2ccn[nH]2)c1`: “grade ≥3 event rate” 14.6% (per patient, item: platelet decrease; human patients; oral, dose not given, dose-finding study).
For `Cl.[2H]C([2H])([2H])CC(=O)c1cnc(NC(=O)C2CC2)cc1Nc1cccc(-c2ncn(C([2H])([2H])[2H])n2)c1OC`, the CL/F was 12.1 L/h (geometric mean; human; 50 mg single dose, fasted, liquid).
Under “treatment-related ALT increased”, `C=CCN1CC(=O)N2[C@@H](Cc3ccc(O)cc3F)C(=O)N(Cc3cccc(N4CC(N5CCN(CC)CC5)C4)n3)C[C@@H]2N1C(=O)NCc1ccccc1` is recorded as 0% (advanced solid tumour patients; oral, 15 mg twice daily, grade ≥3, dose-escalation).
For `O=C(N[C@H](Cc1c[nH]c2ccccc12)C(=O)Nc1ccncc1)c1ccc(-c2ccc(F)c(C(F)(F)F)c2)cc1F`, the concentration was 4.03 µM (Swiss Webster mouse, female, muscle; oral, 50 mg/kg, 8 h, 20% HPβCD vehicle).
`CN1C(=O)[C@@H](NC(=O)c2nnc(Cc3ccccc3)[nH]2)COc2cccnc21` has a terminal half-life of 5.67 h (healthy human, fasted, plasma; oral, 30 mg single dose, geometric mean).
`C[C@@H](N)C1CCN(S(=O)(=O)c2cccc3cnccc23)CC1` has a Vz/F of 10800 L (healthy volunteers, plasma; oral, 150 mg, fed, single dose).
`Cc1c(Cl)c(C)[n+]([O-])c(Cl)c1-c1noc(-c2cc(O)c(O)c([N+](=O)[O-])c2)n1`: “adverse drug reaction incidence” 0% (item: Belching; healthy Chinese subjects; oral, 100 mg, 4 days).
For `O=c1c2ccccc2oc2ccccc12`, the solubility was 0.0275 mole fraction (tricaprin-tricaprylin mixture; 30 °C, tricaprin fraction 1.00).
For `NC1(C(=O)N[C@@H](CCO)c2ccc(Cl)cc2)CCN(c2nc[nH]c3nccc2-3)CC1`, “incidence of SIRS” read 0% (metastatic CRPC patients; 400 mg b.i.d., grade 3 to 4, treatment-related, with: enzalutamide 160 mg daily).
`CCCCOc1ccc([C@H]2CC[C@H](CCC)CC2)c(F)c1F` gave a median concentration of 5.18 ng/mL (human mother-newborn pairs, maternal serum; male fetuses).
For `OC[C@H]1O[C@@H](c2ccc(F)c(Cc3cc4ccccc4s3)c2)[C@H](O)[C@@H](O)[C@@H]1O`, “hypoglycaemia adverse events” read 5 % patients (Japanese type 1 diabetes patients; oral, 25 mg/day, day 14).
With `O=C(CCCCCCC(=O)Nc1ccc(CC[18F])cc1)NO` the tissue uptake was 13 ± 2.7 %ID/g (athymic nu/nu male mice, LNCaP xenograft, liver; intravenous, 0.5 h).
For `C[C@@H](Oc1ccc(S(C)(=O)=O)cc1C(=O)N1C[C@@H]2C[C@]2(c2cc(C(F)(F)F)on2)C1)C(F)(F)F`, “subjects with eye disorders” read 16.7% (human; oral plus intravenous microtracer, dose not given).
`COc1ncc(-c2nc3c(n2C(C)C)[C@H](c2ccc(Cl)cc2)N(c2cc(Cl)cn(C)c2=O)C3=O)c(OC)n1` has a Cmax of 857 ng/mL (LC-MS/MS, noncompartmental; human, plasma; oral, 120 mg, C1D8, high-dose, geometric mean).
Under “serum LDL level”, `CCc1cc(C(=O)NC)c2nccc(N3CCc4c(cc(Cn5ccnc5)cc4-c4cn(C)nc4C(F)(F)F)C3=O)c2c1` is recorded as 0.7 ± 0.1 mmol/L (Sprague Dawley rats; oral, 100 mg/kg once daily, 7 days).
`CC[C@@H]1CN(C(=O)NCC(F)(F)F)C[C@@H]1c1cnc2cnc3[nH]ccc3n12` gave a Vc/F ratio of 0.748 (population PK model; healthy, RA and CD subjects, plasma; oral, immediate-release formulation; baseline: females over males).
For `O=C(Nc1cnccc1Cl)N1CCN(Cc2ccc3c(c2)OC(F)(F)O3)CC1`, the AUC(0-24) was 1200 ng·h/mL (healthy young men, plasma; oral, 25 mg once daily, day 1).
The effective permeability of `Cc1nn(CC(F)(F)F)cc1Nc1ncc(C2CC2)c(NCCCNC(=O)C2CCC2)n1` is reported as 5.08 ×10⁻⁶ cm/s (PAMPA; PBS; 5 h, pH 7.4).
`CC1(C)CC[C@]2(NC(=O)C(C)(F)F)CC[C@]3(C)[C@H](C(=O)C=C4[C@@]5(C)C=C(C#N)C(=O)C(C)(C)[C@@H]5CC[C@]43C)[C@@H]2C1`: “trough plasma concentration” 39.4 ng/mL (human, plasma; oral, 150 mg, day 24 predose, mean).
With `CCn1cc(C(=O)N2CCOCC2)c(=O)c2cc(NC3Cc4ccccc4C3)cnc21` the half-life was 4.1 h (human, fasted; oral tablet, 300 mg single dose, arithmetic mean).
For `CCOc1cc(/C=C2\CN(C(C)=O)CC3=C2OC(N)=C(C#N)C3c2ccc(O)c(OCC)c2)ccc1O` (centres unmarked), the body weight was 154 ± 0.8 g (Wistar rats, tumour-bearing; dose not given, day 42).
The TEAE proteinuria of `O=C(O)CCC(=O)O.[2H]C([2H])([2H])Oc1cc(C)c2[nH]ccc2c1CN1CC[C@@H](C2CC2)C[C@H]1c1ccc(C(=O)O)cc1` is reported as 0% (healthy Chinese subjects; 100 mg, single ascending dose).
Under “subjects with adverse event”, `CN(C)C(=N)N=C(N)N` is recorded as 4.5% (item: haematoma; healthy men; oral, dose not given, 8 days, treatment-emergent, crossover trial).
With `Cc1nc(-c2ccc(OCC(C)C)c(C#N)c2)sc1C(=O)O` the body weight was 31.9 g and 40 g and 43.6 g and 33.3 g and 36.1 g and 37.6 g (KM mouse, chronic hyperuricaemia model; dose not given, day 22).
The SUV of `[18F]c1ccc(-c2ccc3c(c2)[nH]c2ccncc23)cn1` is reported as 0.912 ± 0.278 (microPET/CT imaging; B6SJL mouse, normal, heart; intravenous, 5 min).
`CCc1nc(C(N)=O)c(Nc2ccc(N3CCC(N4CCN(C)CC4)CC3)c(OC)c2)nc1NC1CCOCC1` gave an AUC(0-24) of 5370 ng·h/mL (Japanese patients, plasma; oral, 300 mg, cycle 0 day -2, single dose, mean).
`Cc1cc2sc(N)nc2c2cccnc12` has a Tlag of 0 h (female BALB/c mice, plasma; i.p., 30 mg/kg).
`COc1cc2c3c(n(CCCN4CCOCC4)c(=O)c2cc1OC)-c1cc2c(cc1C3=O)OCO2` gave a Vz of 401 ± 199 L/m² (beagle dog, female, plasma; intravenous infusion, 50 mg/m^2, 1 h infusion, vehicle 1).
For `O=C(O)c1cccc(C(=O)O)c1`, “apparent dissolution enthalpy” read 8.28 kcal/mol (betaine/glycerol DES-water; DES mass fraction 0.10).
